Assay results of several laboratories.
Parts stem from different laboratories: compare values within a part only. “And” joins repeats or separate records; there may be more than shown.
UniProt Q16816, sequence (whole entry, looked up): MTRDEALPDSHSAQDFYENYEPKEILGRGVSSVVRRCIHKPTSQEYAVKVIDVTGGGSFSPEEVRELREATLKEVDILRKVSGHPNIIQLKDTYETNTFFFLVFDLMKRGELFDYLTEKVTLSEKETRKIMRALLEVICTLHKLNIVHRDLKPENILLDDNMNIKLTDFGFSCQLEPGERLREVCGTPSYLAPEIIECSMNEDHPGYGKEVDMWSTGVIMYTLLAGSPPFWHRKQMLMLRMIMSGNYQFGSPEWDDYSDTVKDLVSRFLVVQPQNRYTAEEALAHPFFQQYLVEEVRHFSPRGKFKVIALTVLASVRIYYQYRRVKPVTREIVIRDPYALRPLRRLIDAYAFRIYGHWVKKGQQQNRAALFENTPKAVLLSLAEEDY
UniProt Q9P2K8, sequence (whole entry, unmodified, looked up): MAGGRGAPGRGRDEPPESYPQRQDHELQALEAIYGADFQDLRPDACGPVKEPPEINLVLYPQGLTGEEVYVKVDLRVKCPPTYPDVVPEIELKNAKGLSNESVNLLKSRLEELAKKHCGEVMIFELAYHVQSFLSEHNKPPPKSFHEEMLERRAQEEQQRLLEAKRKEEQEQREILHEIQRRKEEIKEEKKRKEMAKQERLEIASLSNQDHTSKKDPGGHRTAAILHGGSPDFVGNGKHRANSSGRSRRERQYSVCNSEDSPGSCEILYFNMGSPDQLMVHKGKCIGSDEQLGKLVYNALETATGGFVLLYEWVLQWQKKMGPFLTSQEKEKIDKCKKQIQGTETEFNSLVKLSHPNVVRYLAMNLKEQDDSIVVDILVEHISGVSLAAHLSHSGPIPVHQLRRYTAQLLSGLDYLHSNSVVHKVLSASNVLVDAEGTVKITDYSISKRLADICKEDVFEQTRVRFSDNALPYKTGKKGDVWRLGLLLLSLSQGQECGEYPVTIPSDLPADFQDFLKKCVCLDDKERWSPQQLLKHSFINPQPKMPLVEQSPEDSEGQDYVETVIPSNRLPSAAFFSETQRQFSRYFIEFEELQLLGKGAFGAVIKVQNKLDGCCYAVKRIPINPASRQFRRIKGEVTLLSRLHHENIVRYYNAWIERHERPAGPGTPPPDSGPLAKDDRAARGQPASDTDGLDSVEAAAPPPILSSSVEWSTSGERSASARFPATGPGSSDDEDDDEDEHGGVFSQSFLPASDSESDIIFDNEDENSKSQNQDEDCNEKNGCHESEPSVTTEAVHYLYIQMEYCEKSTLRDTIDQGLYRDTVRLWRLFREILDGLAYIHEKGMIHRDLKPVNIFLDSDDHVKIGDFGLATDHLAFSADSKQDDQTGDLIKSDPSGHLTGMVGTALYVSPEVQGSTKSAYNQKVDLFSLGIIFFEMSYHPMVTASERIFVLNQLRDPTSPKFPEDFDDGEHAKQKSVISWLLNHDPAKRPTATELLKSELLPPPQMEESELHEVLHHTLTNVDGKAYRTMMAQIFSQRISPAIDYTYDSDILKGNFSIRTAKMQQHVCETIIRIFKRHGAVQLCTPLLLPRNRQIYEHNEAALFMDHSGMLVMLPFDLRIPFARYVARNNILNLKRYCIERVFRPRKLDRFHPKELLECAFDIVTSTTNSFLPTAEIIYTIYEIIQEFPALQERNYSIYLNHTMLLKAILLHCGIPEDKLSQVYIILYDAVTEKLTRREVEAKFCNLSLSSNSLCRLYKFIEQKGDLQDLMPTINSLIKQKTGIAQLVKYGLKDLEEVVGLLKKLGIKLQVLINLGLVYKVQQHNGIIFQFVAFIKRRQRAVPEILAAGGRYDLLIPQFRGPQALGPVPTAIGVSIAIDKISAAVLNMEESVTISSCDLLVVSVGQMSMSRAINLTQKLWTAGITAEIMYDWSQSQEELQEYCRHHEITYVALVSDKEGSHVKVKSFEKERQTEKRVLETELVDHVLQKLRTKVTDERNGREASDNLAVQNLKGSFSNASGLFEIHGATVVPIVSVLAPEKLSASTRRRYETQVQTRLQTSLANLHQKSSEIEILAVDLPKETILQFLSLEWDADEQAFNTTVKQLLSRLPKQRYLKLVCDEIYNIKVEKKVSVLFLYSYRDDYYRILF
UniProt O43283, sequence (whole entry, looked up): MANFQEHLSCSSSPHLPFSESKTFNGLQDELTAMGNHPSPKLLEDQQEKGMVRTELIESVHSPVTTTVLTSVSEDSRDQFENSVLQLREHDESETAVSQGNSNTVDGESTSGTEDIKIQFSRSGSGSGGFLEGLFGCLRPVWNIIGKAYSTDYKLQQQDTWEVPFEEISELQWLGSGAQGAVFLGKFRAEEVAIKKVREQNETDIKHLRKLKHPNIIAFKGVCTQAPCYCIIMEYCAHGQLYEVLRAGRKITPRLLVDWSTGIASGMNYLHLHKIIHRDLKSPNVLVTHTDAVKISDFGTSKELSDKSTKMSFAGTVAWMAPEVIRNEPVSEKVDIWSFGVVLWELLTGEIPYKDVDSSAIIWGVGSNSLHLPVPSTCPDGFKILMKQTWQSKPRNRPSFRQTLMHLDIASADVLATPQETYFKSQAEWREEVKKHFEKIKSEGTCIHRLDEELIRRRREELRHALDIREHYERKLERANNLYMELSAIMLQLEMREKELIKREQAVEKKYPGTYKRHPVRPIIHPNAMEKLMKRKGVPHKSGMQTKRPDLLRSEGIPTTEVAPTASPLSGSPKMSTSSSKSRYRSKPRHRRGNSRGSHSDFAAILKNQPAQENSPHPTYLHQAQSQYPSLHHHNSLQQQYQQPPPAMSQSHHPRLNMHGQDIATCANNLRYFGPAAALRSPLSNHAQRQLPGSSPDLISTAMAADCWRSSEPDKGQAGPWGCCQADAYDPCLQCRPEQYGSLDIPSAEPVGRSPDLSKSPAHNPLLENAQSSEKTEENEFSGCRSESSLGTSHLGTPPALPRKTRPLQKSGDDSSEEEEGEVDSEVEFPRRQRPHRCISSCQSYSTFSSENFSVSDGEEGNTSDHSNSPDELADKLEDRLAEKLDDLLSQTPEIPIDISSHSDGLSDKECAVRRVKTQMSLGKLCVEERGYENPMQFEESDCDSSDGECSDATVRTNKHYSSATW

Sample 1
Target: Serine/threonine-protein kinase D3 (PRKD3, Homo sapiens, UniProt O94806)
UniProt O94806, sequence (whole entry, looked up): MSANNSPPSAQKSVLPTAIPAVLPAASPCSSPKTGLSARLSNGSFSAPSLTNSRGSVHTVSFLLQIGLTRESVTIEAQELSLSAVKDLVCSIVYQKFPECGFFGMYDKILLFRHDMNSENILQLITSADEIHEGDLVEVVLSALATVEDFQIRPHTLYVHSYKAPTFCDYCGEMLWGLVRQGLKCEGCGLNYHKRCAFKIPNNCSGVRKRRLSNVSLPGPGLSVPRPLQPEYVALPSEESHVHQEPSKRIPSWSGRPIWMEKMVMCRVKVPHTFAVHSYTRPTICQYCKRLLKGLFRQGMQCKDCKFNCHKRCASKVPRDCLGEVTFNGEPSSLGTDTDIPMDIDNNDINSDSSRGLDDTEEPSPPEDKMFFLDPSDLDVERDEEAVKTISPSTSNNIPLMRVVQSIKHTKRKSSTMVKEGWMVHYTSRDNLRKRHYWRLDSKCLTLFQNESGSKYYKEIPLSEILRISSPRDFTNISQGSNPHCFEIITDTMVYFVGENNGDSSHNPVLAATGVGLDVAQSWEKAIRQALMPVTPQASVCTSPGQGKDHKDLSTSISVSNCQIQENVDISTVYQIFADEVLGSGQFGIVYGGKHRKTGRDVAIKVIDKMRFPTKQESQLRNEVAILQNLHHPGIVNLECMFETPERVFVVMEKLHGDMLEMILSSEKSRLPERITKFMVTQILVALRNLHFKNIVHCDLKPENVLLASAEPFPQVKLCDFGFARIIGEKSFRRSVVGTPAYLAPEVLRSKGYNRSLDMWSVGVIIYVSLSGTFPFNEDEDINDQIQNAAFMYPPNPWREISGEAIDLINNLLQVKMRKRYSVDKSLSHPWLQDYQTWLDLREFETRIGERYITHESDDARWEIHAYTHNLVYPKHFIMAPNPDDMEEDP
Effect on: enzyme activity
Action: inhibitor
Tested at: 0.5 µM
Baseline: control
The remaining activity of `Cn1sc(=O)n(Cc2ccccc2)c1=O` is reported as 95.9%.
`CCOC(=O)c1c(C)[nH]c(/C=C2\C(=O)Nc3ccccc32)c1C` has a remaining activity of 90.1%.
For `O=c1c2ccccc2[nH]c(=S)n1CCN1CCC(=C(c2ccc(F)cc2)c2ccc(F)cc2)CC1`, the remaining activity was 101%.
For `COc1ccc(OC)c2c(=S)c3ccccc3[nH]c12`, the remaining activity was 94.1%.
The remaining activity of `OCC(O)CCON=C1C(c2c(O)[nH]c3ccccc23)=Nc2ccccc21` (stereo not shown) is reported as 68.1%.
`O=S(=O)(c1cccc2cnccc12)N1CCCNCC1` has a remaining activity of 65.8%.
The remaining activity of `Cc1ccc(NC(=O)c2ccc(CN3CCN(C)CC3)cc2)cc1Nc1nc(-c2cccnc2)cs1` is reported as 92.7%.
`CO[C@H]1C[C@@H]2CC[C@@H](C)[C@@](O)(O2)C(=O)C(=O)N2CCCC[C@H]2C(=O)O[C@H]([C@H](C)C[C@@H]2CC[C@@H](O)[C@H](OC)C2)CC(=O)[C@H](C)/C=C(\C)[C@@H](O)[C@@H](OC)C(=O)[C@H](C)C[C@H](C)/C=C/C=C/C=C/1C` has a remaining activity of 95.7%.
`CNC(=O)c1cc(Oc2ccc(NC(=O)Nc3ccc(Cl)c(C(F)(F)F)c3)cc2)ccn1` gave a remaining activity of 94%.
The remaining activity of `Cc1nc(-c2ccccc2)c(-c2ccncc2)o1` is reported as 94.3%.
The remaining activity of `COc1cc2ncnc(Nc3ccc(Oc4ccccc4)cc3)c2cc1OC` is reported as 95.8%.
`CC(C)[C@H](CO)Nc1nc(Nc2cc(N)cc(Cl)c2)c2ncn(C(C)C)c2n1` has a remaining activity of 89.2%.
`Cc1cccc(-c2[nH]c(C(C)(C)C)nc2-c2ccc3c(c2)OCO3)n1` gave a remaining activity of 89.3%.
For `O=C1NC(=O)C(c2cn(CCCn3ccnc3)c3ccccc23)=C1Nc1ccccc1`, the remaining activity was 80%.
`Nc1ncnc2n[nH]c(Nc3ccc(F)cc3)c12` gave a remaining activity of 86.7%.
The remaining activity of `Cc1ccc(Nc2nccc(N(C)c3ccc4c(C)n(C)nc4c3)n2)cc1S(N)(=O)=O` is reported as 90%.

Sample 2
SMILES: Cn1nc(C(F)(F)F)cc1-c1cnc(N2CCc3cc(S(=O)(=O)Nc4c(F)cc(Cl)cc4F)cc(N4CCCC4=O)c32)nc1
Effect on: cell-free assay
Method: competition with immobilised ligand
Tested at: 1 µM
The remaining binding was 96% (Ribosomal protein S6 kinase alpha-1, C-terminal kinase domain (RPS6KA1, Homo sapiens, UniProt Q15418)).
The remaining binding was 98% (PHKG1 (Homo sapiens, UniProt Q16816)).
For PIK3CA (Homo sapiens, UniProt P42336, C420R): remaining binding read 76%.
IRAK4 (Homo sapiens, UniProt Q9NWZ3) — remaining binding: 82%.
It gave 100% for remaining binding (PDPK1 (Homo sapiens, UniProt O15530)).
It gave 79% for remaining binding (MAP3K13 (Homo sapiens, UniProt O43283)).
For PIM3 (Homo sapiens, UniProt Q86V86): remaining binding read 100%.
The remaining binding was 85% (ACVR1 (Homo sapiens, UniProt Q04771)).
The remaining binding was 80% (NIM1K (Homo sapiens, UniProt Q8IY84)).
The remaining binding was 100% (TSSK1B (Homo sapiens, UniProt Q9BXA7)).
The remaining binding was 94% (TSSK3 (Homo sapiens, UniProt Q96PN8)).
For MAP4K4 (Homo sapiens, UniProt O95819): remaining binding read 83%.
For MAPK14 (Homo sapiens, UniProt Q16539): remaining binding read 100%.
For PRKD1 (Homo sapiens, UniProt Q15139): remaining binding read 80%.
The remaining binding was 95% (TBK1 (Homo sapiens, UniProt Q9UHD2)).
NEK9 (Homo sapiens, UniProt Q8TD19) — remaining binding: 100%.
Tyrosine-protein kinase ABL1, phosphorylated (ABL1, Homo sapiens, UniProt P00519, F317L) — remaining binding: 94%.
The remaining binding was 100% (EGFR (Homo sapiens, UniProt P00533)).
It gave 85% for remaining binding (Tyrosine-protein kinase ABL1, non-phosphorylated (ABL1, Homo sapiens, UniProt P00519, Q252H)).
The remaining binding was 87% (RET (Homo sapiens, UniProt P07949)).
BTK (Homo sapiens, UniProt Q06187) — remaining binding: 85%.
NTRK1 (Homo sapiens, UniProt P04629) — remaining binding: 69%.

Sample 3
SMILES: CN1CCN(C(=O)c2ccc(NC(=O)Nc3ccc(N(C)c4ccnc(Nc5ccc(CS(C)(=O)=O)cc5)n4)cc3)cc2)CC1
For KIT (Homo sapiens, UniProt P10721, V559D); binding; 1 µM: remaining binding read 0%.
It gave 92% for remaining binding (EPHA7 (Homo sapiens, UniProt Q15375); binding, competition with immobilised ligand; 1 µM).
For MAPK7 (Homo sapiens, UniProt Q13164); binding; 1 µM: remaining binding read 100%.
For MAP2K6 (Homo sapiens, UniProt P52564); binding; 1 µM: remaining binding read 82%.
CDC42BPG (Homo sapiens, UniProt Q6DT37); DiscoverX cell-free binding; 1000 nM — remaining binding: 64%.
ABL1 (Homo sapiens, UniProt P00519, F317I); 1 µM — remaining binding: 96% and 69%.
It gave 100% for remaining binding (EGFR (Homo sapiens, UniProt P00533); binding, competition with immobilised ligand; 1 µM).
EIF2AK4 (Homo sapiens, UniProt Q9P2K8, S808G); binding; 1 µM — remaining binding: 100%.
For RIPK1 (Homo sapiens, UniProt Q13546); binding; 1 µM: remaining binding read 100%.
It gave 100% for remaining binding (PRKCD (Homo sapiens, UniProt Q05655); binding; 1 µM).
The remaining binding was 100% (PHKG1 (Homo sapiens, UniProt Q16816); binding; 1 µM).
It gave 100% for remaining binding (CDKL5 (Homo sapiens, UniProt O76039); binding; 1 µM).
EPHA2 (Homo sapiens, UniProt P29317); binding, competition with immobilised ligand; 1 µM — remaining binding: 85%.

Sample 4
Organism: Sarcocystis neurona
Effect on: parasite growth
Tested at: 10 µM
Time: 96 h
Notes: secondary screen
The inhibition of `Cc1cccc(Nc2ccncc2S(=O)(=O)NC(=O)NC(C)C)c1` is reported as -13.4%.
`CC(=O)OCC(CCn1cnc2cnc(N)nc21)COC(C)=O` gave an inhibition of -27.2%.
With `CC1(C)S[C@@H]2[C@H](NC(=O)COc3ccccc3)C(=O)N2[C@H]1C(=O)O` the inhibition was -10.8%.
For `COc1cc2nc(N(C)CCCNC(=O)C3CCCO3)nc(N)c2cc1OC` (stereo not shown), the inhibition was -31.2%.
The inhibition of `Cc1cccc(C)c1NC(=O)C(C)N` (stereo not shown) is reported as -5.9%.
With `NC(=O)c1cnccn1` the inhibition was -3.8%.
With `COCCCC/C(=N\OCCN)c1ccc(C(F)(F)F)cc1` the inhibition was -22.5%.
`Cc1ccsc1C(=CCCN1CCC[C@@H](C(=O)O)C1)c1sccc1C` has an inhibition of -31.4%.
`CC1(C)S[C@@H]2[C@H](NC(=O)[C@H](N)c3ccccc3)C(=O)N2[C@H]1C(=O)O` has an inhibition of -19.9%.
The inhibition of `C=CC1=C(C(=O)O)N2C(=O)[C@@H](NC(=O)/C(=N\OCC(=O)O)c3csc(N)n3)[C@H]2SC1` is reported as -7.6%.
